Measured values of several laboratories.
Protocols differ between the studies behind these lines. Numbers after ± are the reported error.

| Compound | assay | test system | conditions | endpoint | result |
| --- | --- | --- | --- | --- | --- |
| C[C@@H]1NC(=O)[C@H](CCCCNC(=O)CO/N=C/C(=O)NCCCC[C@@H]2NC(=O)[C@@H](Cc3ccccc3)NC(=O)[C@H](CC(=O)O)NC(=O)CNC(=O)[C@H](CCCNC(=N)N)NC2=O)NC(=O)CNC(=O)[C@@H]2CCCN2C(=O)[C@H](CCCCNC(=O)CO/N=C/C(=O)NCCCC[C@@H]2NC(=O)[C@@H](Cc3ccccc3)NC(=O)[C@H](CC(=O)O)NC(=O)CNC(=O)[C@H](CCCNC(=N)N)NC2=O)NC(=O)[C@H](CCCCNC(=O)CCNC(=O)CCNC(=O)CCNC(=O)[C@H](CCCCN)NC(=O)[C@H](Cc2ccccc2)NC(=O)CNC(=O)CN2CCCNCCNCCCNCC2)NC(=O)[C@H](CCCCNC(=O)CO/N=C/C(=O)NCCCC[C@@H]2NC(=O)[C@@H](Cc3ccccc3)NC(=O)[C@H](CC(=O)O)NC(=O)CNC(=O)[C@H](CCCNC(=N)N)NC2=O)NC(=O)CNC(=O)[C@@H]2CCCN2C(=O)[C@H](CCCCNC(=O)CO/N=C/C(=O)NCCCC[C@@H]2NC(=O)[C@@H](Cc3ccccc3)NC(=O)[C@H](CC(=O)O)NC(=O)CNC(=O)[C@H](CCCNC(=N)N)NC2=O)NC1=O [copper-64 labelled] |  | normal mice, lung | intravenous, 0.74 MBq, 24 h post-injection | tissue uptake | 2.95 ± 0.51 %ID/g |
| CC(C)C[C@H](NC(=O)[C@H](CCCCN)NC(=O)OCC1c2ccccc2-c2ccccc21)C(=O)N[C@H](C(=O)N[C@@H](Cc1ccccc1)C(=O)N[C@@H](Cc1ccccc1)C(=O)N[C@@H](CCCCN)C(=O)NCC(=O)N[C@@H](Cc1ccccc1)C(=O)N[C@@H](C)C(=O)N[C@@H](Cc1c[nH]c2ccccc12)C(=O)N[C@@H](CC(N)=O)C(=O)N[C@H](C(=O)N[C@H]1CSSC[C@@H](C(=O)N[C@@H](Cc2c[nH]cn2)C(=O)N[C@@H](CCCNC(=N)N)C(=O)N[C@@H](CCCNC(=N)N)C(=O)N[C@@H](C)C(=O)N[C@@H](CC(N)=O)C(N)=O)NC(=O)[C@H](C(C)C)NC(=O)[C@H](CCCNC(=N)N)NC(=O)[C@H](C(C)C)NC(=O)CNC(=O)[C@H](CC(N)=O)NC(=O)[C@H](CCCNC(=N)N)NC(=O)[C@H](Cc2ccc(O)cc2)NC(=O)[C@H](C(C)C)NC1=O)C(C)C)C(C)C |  | ICR mouse, blood | intramammary, 10 mg/kg, day 5, 3 d dosing | globulin | 18.91 ± 0.18 g/L |
| O=S(=O)(Nc1ccccc1)c1ccc(NC(=S)Nc2ccccc2)cc1 | refers to: EO% | male mouse, blood | oral, 20 mg/kg daily, 14 days | blood cell fraction | 0.67% |
| CC(=O)c1c(C)c2cnc(Nc3ccc(C4CCN(CCS(C)(=O)=O)CC4)cn3)nc2n(C2CCCC2)c1=O |  | HR+/HER2- advanced breast cancer patients | oral, 300 mg | patients with serious AE | 25% |
| C=CCNc1c(O)cc2c(O)c1C[C@@H](C)C[C@H](OC)[C@H](O)[C@@H](C)/C=C(\C)[C@H](OC(N)=O)[C@@H](OC)/C=C\C=C(/C)C(=O)N2 |  | unresectable or metastatic STS, GIST, other | intravenous, 500 mg/m^2 | patients with vomiting TEAE | 43% |
| CCc1ccc(CC/C=C/c2ccc3c(c2)C(=O)CC3)cc1 |  | Sprague-Dawley rat, male, blood | oral, 450 mg/kg/day, 14 days | MCH | 19.1 pg |
| C=CC(=O)N1CC[C@H](n2nc(C#Cc3cc(OC)cc(OC)c3)c3c(N)ncnc32)C1 |  | human patients | oral, dose not given, QD regimen, adverse drug reaction, together with: sevelamer hydrochloride | decreased appetite, any grade | 45.5% |
| CN1CCN(S(=O)(=O)c2cc([N+](=O)[O-])ccc2N(CCOS(C)(=O)=O)CCOS(C)(=O)=O)CC1 |  | naive NOD/SCID mice, pooled blood | intraperitoneal, 12.5 mg/kg, week 4 | glucose | 4.1 mmol/L |
| N#Cc1ccc(N2CCN(Cc3ccc(COc4cccc5c4CN([C@H]4CCC(=O)NC4=O)C5=O)cc3)CC2)c(F)c1 | population PK model | human | oral, BLQ concentrations excluded | intercompartmental clearance | 37.5 L/h |
| COc1ccc(N=Nc2ccc3[nH]cc(CCNCc4cccc(OC)c4)c3c2)cc1 | HPLC | DMSO:PBS 1:1 | pH 7.4, after 385 nm irradiation | cis isomer fraction | 94% |
| C[C@]1(CO)Cc2ncn(-c3ccc(C#N)c(Cl)c3)c2C(=O)O1 |  | healthy humans | concentration not given, food-effect part total | drug-related Fatigue incidence | 0% |
| Clc1ccc(-c2ccccc2)cc1 |  | Sprague-Dawley rats, female, serum | inhalation, 23 µg/rat, 4 h after exposure | alanine aminotransferase | 66 ± 23 U/L |
| N#C/N=C1\SCCN1Cc1ccc(Cl)nc1 |  | soil | 56 days, nominal 10 | concentration | 0.05 mg/kg dry soil |
| CN1CC[C@@H](c2c(O)cc(O)c3c(=O)cc(-c4ccc(C(F)(F)F)cc4Cl)oc23)[C@@H]1CO | refers to: febrile neutropenia | AML | oral, 150 mg, grade 3 to 4, intermittent dosing | patients with adverse event | 0% |

Some of these lines once more:
| Compound | assay | test system | conditions | endpoint | result |
| --- | --- | --- | --- | --- | --- |
| C=CC(=O)N1CC[C@H](n2nc(C#Cc3cc(OC)cc(OC)c3)c3c(N)ncnc32)C1 |  | human patients | oral, dose not given, QD regimen, adverse drug reaction, together with: sevelamer hydrochloride | decreased appetite, any grade | 45.5% |
| CN1CCN(S(=O)(=O)c2cc([N+](=O)[O-])ccc2N(CCOS(C)(=O)=O)CCOS(C)(=O)=O)CC1 |  | naive NOD/SCID mice, pooled blood | intraperitoneal, 12.5 mg/kg, week 4 | glucose | 4.1 mmol/L |
